{"data": "Results from different studies", "note": "Compare with care: the assays were run in different laboratories. Several values in a cell are separate wells, animals, samples, runs or records. Numbers after ± are the reported error."}
{"SMILES": "O=C1NC2(CC2)COc2ncc(F)cc2[C@H]2COCCN2c2ccn3ncc1c3n2", "cell line": "CHL", "setting": "75 µg/mL, 4 h, with rat liver S9", "endpoint": "structural aberrations with gaps", "value": "0.7%"}
{"SMILES": "N=C(N)NCCC[C@@H]1NC(=O)[C@H](CCCNC(=N)N)NC(=O)[C@@H](C(c2ccccc2)c2ccccc2)NC(=O)[C@H](Cc2c[nH]c3ccccc23)NC(=O)[C@@H](C(c2ccccc2)c2ccccc2)NC(=O)[C@@H](CCCNC(=N)N)NC(=O)[C@@H](CCCNC(=N)N)NC1=O", "cell line": "MRC5", "test": "cell growth or viability, MTS", "setting": "200 µg/mL, 24 h", "endpoint": "viability", "value": "76 to 81%"}
{"SMILES": "O=C(Nc1cccc(N2CCOCC2)c1)c1cc(-c2ccccc2)n(-c2ccccc2)n1", "cell line": "HeLa", "test": "cell growth or viability", "endpoint": "CC50", "value": "> 50 µM"}
{"SMILES": "CC(=O)N[C@H](C(=O)N[C@H](C(=O)N[C@@H](CCCNC(=N)N)C(=O)N[C@@H](CC(N)=O)C(=O)N[C@@H](CC(=O)O)C(=O)N[C@H](C(=O)N1CCC[C@@H]1C(=O)N1CCC[C@H]1C(=O)N[C@@H](CC(=O)O)C(=O)N[C@@H](CO)C(=O)N[C@@H](CC(C)C)C(=O)N[C@@H](CC(C)C)C(=O)N[C@H](C(=O)N[C@@H](Cc1ccccc1)C(N)=O)C(C)C)C(C)C)[C@@H](C)O)C(C)C", "cell line": "HEK-293T", "test": "subcellular fractionation LC-MS", "system": "cytoplasmic fraction", "setting": "20 µM, 2 h", "endpoint": "concentration", "value": "not detected"}
{"SMILES": "Cc1cc(C)nc(NC(=S)N2CCN(c3ccncc3)CC2)c1", "cell line": "SK-MEL-2", "test": "cell viability, CellTiter-Glo", "setting": "4 days", "endpoint": "EC50", "value": "> 100 µM"}
{"SMILES": "CC(C)C[C@](O)(C(=O)OCc1ccc(O[C@@H]2O[C@H](CO)[C@@H](O)[C@H](O)[C@H]2O)cc1)[C@H](O)C(=O)OCc1ccc(O[C@@H]2O[C@H](CO)[C@@H](O)[C@H](O)[C@H]2O)cc1", "cell line": "HaCaT", "test": "cytotoxicity, MTT", "setting": "48 h, 10% FBS", "endpoint": "IC50", "value": "> 200 µM"}
{"SMILES": "CCNc1cc2c(cc1C)C1(c3cc(C)c(NCC)cc3O2)c2ccccc2C(=O)N1N=Cc1c[c-]c(-c2ccccn2)cc1.Cc1c(C)c(-c2ccc(-c3ccccc3)cc2)[c-](C)c1C.[Cl-].[Ir+3]", "cell line": "A549", "test": "annexin V/PI flow cytometry", "setting": "3.0×IC50, 24 h", "endpoint": "viable cells", "value": "2.59 ± 0.29%"}
{"SMILES": "Cc1onc(-c2ccc(F)cc2)c1C(=O)Nc1cccc(C(N)=O)c1", "cell line": "HeLa", "test": "cell growth or viability", "endpoint": "CC50", "value": "> 50 µM"}
{"SMILES": "CC(C)C[C@@H]1NC(=O)[C@H](CO)NC(=O)[C@H](CC(=O)O)NC(=O)[C@@H]2CCCN2C(=O)[C@H]2CCCN2C(=O)[C@H](C(C)C)NC(=O)[C@H](CC(=O)O)NC(=O)[C@H](CC(N)=O)NC(=O)[C@H](CCCNC(=N)N)NC(=O)[C@H]([C@@H](C)O)NC(=O)[C@H](C(C)C)NC(=O)CCNC(=O)CCNC(=O)[C@H](Cc2ccccc2)NC(=O)[C@H](C(C)C)NC(=O)[C@H](CC(C)C)NC1=O", "cell line": "HEK-293T", "test": "subcellular fractionation LC-MS", "system": "cytoplasmic fraction", "setting": "20 µM, 2 h", "endpoint": "peptide amount per protein", "value": "not detected"}
{"SMILES": "Cc1cc(=O)c2c(O)c3c(O[C@@H]4O[C@H](CO)[C@@H](O)[C@H](O)[C@H]4O)cc(O)cc3cc2o1", "cell line": "HepaRG co-cultured with HK-2", "test": "MTT", "setting": "66.67 µM, 48 h", "how to read": "reference: untreated control", "endpoint": "cell viability", "value": "64.3 ± 5.75%"}
{"SMILES": "CN1CCCNC(=O)c2cccc(c2)C(=O)NCCCN(C)CCCNc2cccc3c2C(=O)c2cccc(c2C3=O)NCCC1", "cell line": "HeLa", "test": "cell growth or viability, CCK-8", "setting": "1 nM, 48 h", "endpoint": "viability", "value": "103%"}
{"SMILES": "NC(=O)c1cccc(NC(=O)c2oncc2-c2ccccc2)c1", "cell line": "HeLa", "test": "cell growth or viability", "endpoint": "CC50", "value": "> 50 µM"}
{"SMILES": "CCCCCCCCCCCCOC(=O)c1ccc(O)cc1", "cell line": "Caco-2 monolayers", "setting": "5 µM, 1 h, apical to basolateral", "endpoint": "mass balance", "value": "81%"}
{"SMILES": "Cc1ccc(-n2nc(C(=O)Nc3cccc(C(N)=O)c3)cc2-c2ccc(CC(C)C)cc2)cc1", "cell line": "HeLa", "test": "cell growth or viability", "endpoint": "CC50", "value": "> 50 µM"}
{"SMILES": "NC[C@H]1O[C@H](O[C@H]2[C@H](O)[C@@H](O[C@H]3O[C@H](Cn4cc(CNC(=S)Nc5ccc6c(c5)C(=O)OC65c6ccc(O)cc6Oc6cc(O)ccc65)nn4)[C@@H](O)[C@H](N)[C@H]3O)[C@H](N)C[C@@H]2N)[C@H](O)[C@@H](O)[C@@H]1O", "cell line": "MCF7", "test": "flow cytometry", "setting": "5 µM, 24 h", "endpoint": "cellular uptake", "value": "17 ± 4.4%"}
{"SMILES": "O=C(NCc1ccncc1)c1cc(-c2ccccc2)n(-c2ccccc2)n1", "cell line": "HeLa", "test": "cell growth or viability", "endpoint": "CC50", "value": "> 50 µM"}
{"SMILES": "COc1cc(/C=C/C=C2\\SC(=S)NC2=O)ccc1O", "cell line": "HEK-293T", "test": "CellTiter-Glo", "setting": "1.25 µM, 24 h, unit not given", "how to read": "reference: untreated", "endpoint": "viability", "value": "0.976 and 1"}
{"SMILES": "N#Cc1ccc(CNC(=O)c2cc(-c3ccccc3)n(-c3ccccc3)n2)cc1", "cell line": "HeLa", "test": "cell growth or viability", "endpoint": "CC50", "value": "> 50 µM"}
{"SMILES": "COc1ccc2nccc(CC[C@H]3OC[C@H](NC(=O)c4ccc5c(c4)NC(=O)CO5)CO3)c2c1", "cell line": "HeLa", "test": "cytotoxicity", "setting": "24 h", "endpoint": "IC50", "value": "> 128 µg/mL"}
{"SMILES": "Cc1c(C(=O)N[C@H](C(=O)Nc2cccc(C(N)=O)c2)c2ccc(OCc3ccccc3)cc2)cnn1-c1ccccc1", "cell line": "HeLa", "test": "cell growth or viability", "endpoint": "CC50", "value": "> 50 µM"}
{"SMILES": "C=C(C)C(C)(C)CCC(C)C1CCC2(C)C3CCC4C(C)C(O)CCC45CC35CCC12C (stereo not drawn)", "cell line": "HaCaT", "test": "cytotoxicity, MTT", "setting": "48 h, 10% FBS", "endpoint": "IC50", "value": "> 200 µM"}
{"note": "Some of these lines once more:"}
{"SMILES": "CCNc1cc2c(cc1C)C1(c3cc(C)c(NCC)cc3O2)c2ccccc2C(=O)N1N=Cc1c[c-]c(-c2ccccn2)cc1.Cc1c(C)c(-c2ccc(-c3ccccc3)cc2)[c-](C)c1C.[Cl-].[Ir+3]", "cell line": "A549", "test": "annexin V/PI flow cytometry", "setting": "3.0×IC50, 24 h", "endpoint": "viable cells", "value": "2.59 ± 0.29%"}
{"SMILES": "CN1CCCNC(=O)c2cccc(c2)C(=O)NCCCN(C)CCCNc2cccc3c2C(=O)c2cccc(c2C3=O)NCCC1", "cell line": "HeLa", "test": "cell growth or viability, CCK-8", "setting": "1 nM, 48 h", "endpoint": "viability", "value": "103%"}
